Assay results gathered from unrelated publications.
Every numbered part comes from another study and shows a few of its results, in no order. Changes are numbered by the printed parent chain.

Study 1
Target: RNA binding protein fox-1 homolog 2, RRM domain, GST-SBP tag (RBFOX2, Homo sapiens, UniProt O43251-10, residues 100-194)
Technique: RNA Bind-n-Seq
Molecule type: RNA
Sample: in vitro
Concentration: 365 nM
Setting: natural RNA segment, single round, ends assumed
Baseline: no-protein control
Reading: higher = stronger binding
Quantity: RBNS enrichment (R)
All sequences stand within: GGGAGUUCUACAGUCCGACGAUC … UGGAAUUCUCGGGUGCCAA
Target sequence (chain): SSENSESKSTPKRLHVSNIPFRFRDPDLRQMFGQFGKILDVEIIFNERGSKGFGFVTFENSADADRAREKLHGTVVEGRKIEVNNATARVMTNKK
AUGUUCUACUUGUCAGGGCUGGAACUAUUGUAUAGAAGAUAAUAUGAUUGUGACUUCUAGUUCUUUUCUAGAGGAUGCUGCUAGAAAAUGGUUUUGCUUUGUAUUUUAUA: 9.29
CGUAUGUCAGUGUAUCUGGAUACACGAGGAAAAGGAAAGAGUCUCAGAGUGGAACAAAGAGUGGGAAGAGGUGAUCUGUAAUGUUACAAAUUGUGCUAUUACUCCAAGGU: 0.57
GCUCACUCCCCAAGCUUUAUGGAGCUUCCAGCAACAGCCAUGAACUUGAGGUUCCUUGAAUUUGCGAGGUGUGGAAAGACUACUUGACUGUCUGUCCAGCUUAGCUGUUA: 0.346
AUAUAACACUUAUGUGCUGGGCUUUCUUUUAAAUGCUUUCCAAGUGUUAACUUGUUUAGUCCCCUUUACUCUGAGAUAGGUACUGUUACCCCAGUUUUACAAAUGGCUAA: 0.26
UGAUGCUUCCUUCCAGUUCCUGGUGAAAGCUGCUCAUGCAGUGUGGUUUUCUUUGCUUUAGCUCGAGAAAGCGGCAGCAAACAGAAUACAGAAUGAAUGGAGACUGGGUU: 0.436
UCAUUCAAAUCUUGGAUUUUUUUUUUUCCCUAAGAGAUUCUCUUUUUAGGGGGAAUGGGAAACGGACACCUCAUAAAGGGUUCAAAGAUCAUCAAUUUUUCUGACUUUUU: 0.41
GAUUUUGCAGAACCUUUGGUUUUGGACAGUUUCAUUUUUUUGGAUUUGGGAUAGAUUACAUAGGAGUAUGGAGUAUGCUGUAAAUAAAAAUACAAGCUAGUGCUUUGUCU: 0.449
UUAAAGCCUGGAGUCUGUUAGAUUAACUACCAAAUAGGAAGCAGCCAUGGAGGUUAUUGCCUGCGUCCCAGAAUCAAGCAGUUGGGGUGCAGGAGGCUGACAUAGUGAUA: 0.279

Study 2
Target: Phosphate system positive regulatory protein PHO4, full length, GST-tagged (PHO4, Saccharomyces cerevisiae, UniProt P07270, residues 1-312)
Technique: competition protein-binding microarray
Molecule type: double-stranded DNA, one strand shown
Sample: in vitro
Concentration: 2 µM
Setting: whole 60-bp probe, lowest competitor level
With: Cbf1 competitor, 0.05 µM
Reading: higher = stronger binding
Quantity: fluorescence intensity
All sequences stand within: … GTCTTGATTCGCTTGACGCTGCTG
Residues (chain): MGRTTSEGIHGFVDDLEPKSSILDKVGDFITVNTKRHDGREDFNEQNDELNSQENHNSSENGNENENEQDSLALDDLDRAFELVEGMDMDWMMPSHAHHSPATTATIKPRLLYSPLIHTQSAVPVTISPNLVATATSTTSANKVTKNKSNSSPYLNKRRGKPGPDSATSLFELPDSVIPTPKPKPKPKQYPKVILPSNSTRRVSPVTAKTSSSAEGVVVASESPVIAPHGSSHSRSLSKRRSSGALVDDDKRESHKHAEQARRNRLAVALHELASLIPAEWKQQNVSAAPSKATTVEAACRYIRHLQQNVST
AAAGCGGTAATTTGCCGAGTGGGTGCAGATATCTAT: 4350 a.u.
AAAGCGGTAATTTGCCGTGTGGGTGCAGATATCTAT: 5290 a.u.
AAGAATTTTATATGGCTTGTGATGAGACTGACGTCC: 3300 a.u.
AAAATCTGCGATTGTCATGCCTCCAAGACTGATGTT: 4160 a.u.
AAATTACTAAGTTGACTTGTGGGTGACGCCGTATGA: 4420 a.u.
AAAAGTGGGAGCTCATTCGTGATGGGGAAGCAGAGA: 4130 a.u.
CTAACGAAGGTTTGATCCGTGGGTGACAAGCCAAGT: 4980 a.u.
CGGGGTTAAGTTTGTAGTGTGGGTGGCTTGCAGCAG: 5910 a.u.
AAAGCGGTAATTTGGTTGGTGGGTGCAGATATCTAT: 4490 a.u.
CTATCCCTTTCTTTGCACGTGATGGTAAGAATCGTA: 16800 a.u.
GTCTTGTCTCATTGCGGAGTGGGTGTCCCCACTTCA: 4330 a.u.
AAAGCGGTAATTTGGCCGGTGGGTGCAGATATCTAT: 4300 a.u.
CTTCTGTAAATTTGGCACGTGGGTGGACGCGCCCCG: 19600 a.u.
TATTATATTCTCCATCACGTTATTGAATATTTCGTT: 9090 a.u.
CTCGTCTGACGCGGAAACGTGCGGAAAAAAATCTCC: 13700 a.u.
AAATTACTAAGTTGAAGAGTGGGTGACGCCGTATGA: 3690 a.u.
TGCAGGGAGAGGTCACACGAGGACGCAGGGATGCTG: 10600 a.u.
CATGAAATTGCTTACGTCGTGCCAGATTACATATAG: 9840 a.u.
CTCCAACATGCTTTGCACGGGGGAGGGACAGTAGCT: 9100 a.u.

Study 3
Target: Hepatocyte nuclear factor 3-alpha (Foxa1, Mus musculus, UniProt P35582, residues 1-468, full length assumed)
Technique: EMSA with sequencing
Molecule type: double-stranded DNA, one strand shown
Sample: in vitro
Concentration: 10 and 20 nM
Setting: whole designed probe, mean of two concentrations, ends assumed
Baseline: negative control set to 0
Reading: higher = stronger binding
Quantity: normalised bound fraction
All sequences stand within: GTGAGCGGTGCCCATTGATGGGGAAC … TTTCACTGGGATCGTGGGGAC
Construct (chain): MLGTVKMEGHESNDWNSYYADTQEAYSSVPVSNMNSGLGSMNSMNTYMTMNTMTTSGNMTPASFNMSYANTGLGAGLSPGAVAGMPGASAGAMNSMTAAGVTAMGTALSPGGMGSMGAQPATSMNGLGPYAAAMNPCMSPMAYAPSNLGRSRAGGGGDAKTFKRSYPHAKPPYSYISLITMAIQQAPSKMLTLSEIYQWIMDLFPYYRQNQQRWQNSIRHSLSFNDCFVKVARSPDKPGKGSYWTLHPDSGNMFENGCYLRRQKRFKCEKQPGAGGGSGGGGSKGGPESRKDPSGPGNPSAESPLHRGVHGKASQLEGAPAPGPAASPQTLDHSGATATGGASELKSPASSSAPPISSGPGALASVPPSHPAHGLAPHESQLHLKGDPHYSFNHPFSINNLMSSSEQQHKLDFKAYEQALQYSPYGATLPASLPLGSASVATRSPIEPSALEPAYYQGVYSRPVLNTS
CATTAGAGTCAAAGTTGTTAAGGGGAGCTAGTCATAGCTACCACGTGGCCAGGCATGTGGAACCAGACACCAGGCACACATCATGTAACATCATATTTACTTTAAATAATGCTGACAACCTAGTTCATAGTGACACACTACTTGAGATATATAGAATAACATTATTACCCAGTAAGTATGTGAACATTCCGAT: 0.301 ratio
ATGTGGGAACTAATTGAGGACCATGTTTACAATGCGTACAAATCATAAATCAATTAGTTCATATTGATTTACAAGGAAGAAACAAAAAGTATTTGTTTACATTGATACTGTCCATGTAAACTTTTTTCAATTCAAAAGAAACACATAGTTCTGTCATAAAGTAGATTTTCTATCCCTTTTATTTTCTGAGCTT: 0.497 ratio
GAATAATCCCATTGTAAGTCACTCGCCTTCTGGTGGATTTCGGTCAGGGTCAAAGAGCAAACGGGCAGGAACTGGGCTGTTTGAATGAGCTTTGTAAACAAGGTCGTCATCAAGCCATGACTCAATACACAGTGAATTATCTGAAGCCTTTTAGAATTAGCAACTAACCTCCAGGAAACTGGTGCATGTTGCA: 0.228 ratio
ACCAATAAGAGGCCTTTTTGAACAGTGACGCCAGGCGCCCTGGCGCTGCCCCCAAGCTCGTGCCTCATTTACAGCCTGCGGGCGGGAGTCTCCTTGTTTACCAAAGCAGAGGGCGTGTGGGAGGCGGGGGCCGTCGCTCGCTCCCGCCTCCTCGGAAACCTTGTCCCCACAACCGCTGCGTGTTAAAAAGGAC: 0.205 ratio
GAAATTATGACTATCACTGTGAGGAGAAAATTGCATTGCTATGTGAAAAGAAATTCTCCTAGTTGTCCATTTTTTAAAGCTATATTTTTCCTTGTTTACTTTAACATTTGTGGAGGTTGTTTTATTGACCCTAAATCCACAAATATTCTGTTTTCTCTTGAATCAATAATCACCCTGTTTCCTCCTGGTTGTT: 0.451 ratio

Study 4
Target: CCNA2, cyclin fold, Cln2 fusion (human)
Technique: yeast growth competition, sequencing
Sample: yeast
Setting: weak parent motif
Baseline: not given
Reading: higher = stronger binding
Quantity: normalised enrichment score
Parent: EXO1 docking peptide (human); KPECGRVQRAIFQ
C4A: 0.554
K1A: 0.562
R9A: 0.239
R6A: 0.01
I11A: 0.204
V7A: 0.559
